Measured values of several laboratories.
Lines come from different studies, so protocols differ. ± gives the spread as reported.

CC[C@H](C)[C@@H]([C@@H](CC(=O)N1CCC[C@H]1[C@H](OC)[C@@H](C)C(=O)N[C@H](C)[C@@H](O)c1ccccc1)OC)N(C)C(=O)[C@@H](NC(=O)[C@H](C(C)C)N(C)C(=O)OCc1ccc(NC(=O)[C@H](CCCNC(N)=O)NC(=O)[C@@H](NC(=O)Cn2cc(CCC(=O)NCCC(=O)N(C)CC(=O)N(C)CC(=O)N(C)CC(=O)N(C)CC(=O)N(C)CC(=O)N(C)CC(=O)N(C)CC(=O)N(C)CC(=O)N(C)CC(=O)N(C)CC(=O)N[C@@H](C)C(=O)NC3CN(C)Cc4cc5cc(c4)CN(C)CC(C(N)=O)NC(=O)[C@H](C(C)(C)C)NC(=O)[C@H](CC(=O)O)NC(=O)[C@H](Cc4ccc(O)cc4)NC(=O)[C@H](Cc4ccccc4)NC(=O)[C@H](CC(=O)O)NC(=O)[C@H](CCC(=O)O)NC(=O)[C@H](CSC5)NC(=O)[C@@H](C)NC(=O)[C@H](Cc4cccc5ccccc45)NC(=O)[C@H](CCC(=O)O)NC(=O)[C@H](CC(N)=O)NC(=O)[C@@H](C)NC3=O)nn2)C(C)C)cc1)C(C)C (stereo partly drawn)  clearance (CD-1 mouse, plasma; intravenous, 3 mg/kg): 4.04 mL/min/kg
CC[C@H](C)[C@@H]1NC(=O)[C@H](CCCNC(=N)N)NC(=O)[C@H](CO)NC(=O)[C@H](CCC(=O)O)NC(=O)[C@H](CC(=O)O)NC(=O)CNC(=O)CNC(=O)[C@H]([C@@H](C)O)NC(=O)[C@H](Cc2ccccc2)NC(=O)[C@H](CO)NC(=O)[C@H]([C@@H](C)O)NC(=O)[C@H](C)NC(=O)[C@@H]2CSSC[C@@H](C(=O)N[C@@H](Cc3ccc(O)cc3)C(=O)N[C@@H](Cc3ccccc3)C(=O)N[C@H](C(=O)N[C@H](C(=O)NCC(=O)O)[C@@H](C)O)[C@@H](C)O)NC(=O)[C@H]([C@@H](C)O)NC(=O)[C@H](CSSC[C@H](NC(=O)[C@H](CCC(=O)O)NC(=O)[C@H](CO)NC(=O)[C@H](CCCCN)NC(=O)[C@H](Cc3ccc(O)cc3)NC(=O)[C@@H]3CCCN3C(=O)[C@H](Cc3ccccc3)NC(=O)[C@H](CCCCN)NC(=O)[C@H](CCCNC(=N)N)NC(=O)[C@H](CCCCN)NC(=O)[C@H](CCCCN)NC(=O)[C@H](Cc3ccc(O)cc3)NC(=O)[C@@H]3CCCN3C(=O)[C@@H](NC(=O)[C@H](CC(=O)O)NC(=O)[C@H](CCCCN)NC(=O)[C@H](CCCCN)NC(=O)[C@@H](NC(=O)[C@@H](NC(=O)[C@@H](N)CCC(=O)O)C(C)C)[C@@H](C)CC)[C@@H](C)O)C(=O)N[C@@H](CC(C)C)C(=O)N[C@@H](CCCCN)C(=O)N[C@@H](C)C(=O)N2)NC(=O)[C@H](CCCCN)NC(=O)[C@H](Cc2ccccc2)NC(=O)[C@H](Cc2ccccc2)NC(=O)CNC(=O)[C@@H]2CCCN2C(=O)[C@H](CCCCN)NC(=O)CNC(=O)[C@H](CCC(=O)O)NC(=O)[C@H](CCC(N)=O)NC1=O  LD50 (Kunming mouse; iv, 24 h): ~0.85 mg/kg
COC(=O)c1cc2c(=O)n3ccccc3nc2n1Cc1ccccc1  EC90 (Severe acute respiratory syndrome coronavirus 2; viral replication, inhibitor, qPCR; Vero C1008): 36.1 µM
C=CCOC(=O)C12CCC(C)(C)CC1C1=CCC3C4(C)CCC(OC5OC(CO)C(O)C(O)C5O)C(C)(C)C4CCC3(C)C1(C)CC2 (stereo not drawn)  inhibition (Severe acute respiratory syndrome coronavirus 2; viral replication; 293T/ACE2; 20 µM): 27.6%
CC[C@H](C)C(=O)N1CCC(NC(=O)Nc2ccc(OC(F)(F)F)c(F)c2)CC1  subjects with COVID-19 TEAE (healthy volunteers; oral, 0.5 mg single dose): 0%
CCCCCCCCCCCCC1O[C@@H]2C[C@H]3[C@@H]4CCC5=CC(=O)C=C[C@]5(C)[C@H]4[C@@H](O)C[C@]3(C)[C@]2(C(=O)CO)O1 (stereo partly drawn)  IC50 (Severe acute respiratory syndrome coronavirus 2; viral replication, inhibitor; Calu-3): 16.1 µM
O=C(C=Cc1ccc(O)c(O)c1)OC1CC(O)(C(=O)O)CC(OC(=O)C=Cc2ccc(O)c(O)c2)C1O (stereo not drawn)  inhibition (Severe acute respiratory syndrome coronavirus 2; cytopathic effect, inhibitor; Vero C1008; 0.7812 µM): 0%
C[C@]12C=CC(=O)C=C1CC[C@@H]1[C@@H]2[C@@H](O)C[C@@]2(C)[C@H]1C[C@H]1OC(C3CC3)O[C@]12C(=O)CO (stereo partly drawn)  IC50 (Severe acute respiratory syndrome coronavirus 2; viral replication, inhibitor; VeroE6/TMPRSS2; 24 h): > 30 µM
CC1OC(OC2C(CO)OC(OC3CCC4(C)C(CCC5(C)C4CC=C4C6CC(C)(C)CCC6(C(=O)OC6CCCC6)CCC45C)C3(C)C)C(OC3OC(C)C(O)C(O)C3O)C2O)C(O)C(O)C1O (stereo not drawn)  inhibition (Severe acute respiratory syndrome coronavirus 2; viral replication; 293T/ACE2; 20 µM): 67.8%
CCCCCCCCCCCCCCCC(=O)N[C@@H](CCC(=O)NCCOCCOCCC(=O)NCCOCCOCCC(=O)NCCCC[C@H](NC(=O)[C@H](CC(=O)O)NC(=O)[C@H](CC(C)C)NC(=O)[C@H](Cc1ccc(O)cc1)NC(=O)[C@H](CCCCN)NC(=O)[C@H](CO)NC(=O)[C@H](Cc1ccc(O)cc1)NC(=O)[C@H](CC(=O)O)NC(=O)[C@H](CO)NC(=O)[C@@H](NC(=O)[C@H](Cc1ccccc1)NC(=O)[C@@H](NC(=O)CNC(=O)[C@H](CCC(N)=O)NC(=O)[C@@H](CO)NC(=O)[C@@H](N)Cc1c[nH]cn1)[C@@H](C)O)[C@@H](C)O)C(=O)N[C@@H](CCCNC(=N)N)C(=O)N[C@@H](CCCNC(=N)N)C(=O)N[C@@H](C)C(=O)N[C@@H](CCC(N)=O)C(=O)N[C@@H](CC(=O)O)C(=O)N[C@@H](Cc1ccccc1)C(=O)N[C@H](C(=O)N[C@@H](CCC(N)=O)C(=O)N[C@@H](Cc1c[nH]c2ccccc12)C(=O)N[C@@H](CC(C)C)C(=O)N[C@@H](CC(C)C)C(=O)N[C@@H](CC(N)=O)C(=O)N[C@H](C(=O)NCC(=O)NCC(=O)N1CCC[C@H]1C(=O)N[C@@H](CO)C(=O)N[C@@H](CO)C(=O)NCC(=O)N[C@@H](C)C(=O)N1CCC[C@H]1C(=O)N1CCC[C@H]1C(=O)N1CCC[C@H]1C(=O)N[C@@H](CO)C(N)=O)[C@@H](C)O)C(C)C)C(=O)O  Tmax (rhesus monkey; subcutaneous, 20 µg/kg, single dose): 1.83 ± 0.408 h
Cc1ccc(N2CC3CC(C2)N3C)cc1C(=O)NC1(c2ccc3c4c(cccc24)C(=O)N3C)CC1  inhibition (Severe acute respiratory syndrome coronavirus 2; viral replication; Vero C1008; 12.5 µM): 100%
C=CCOC(=O)C12CCC(C)(C)CC1C1=CCC3C4(C)CCC(OC5OC(COC(=O)c6ccccc6)C(OC(=O)c6ccccc6)C(OC(=O)c6ccccc6)C5OC(=O)c5ccccc5)C(C)(C)C4CCC3(C)C1(C)CC2 (stereo not drawn)  inhibition (Severe acute respiratory syndrome coronavirus 2; viral replication; 293T/ACE2; 20 µM): 33%
CC[C@H](C)[C@@H]([C@@H](CC(=O)N1CCC[C@H]1[C@H](OC)[C@@H](C)C(=O)N[C@H](C)[C@@H](O)c1ccccc1)OC)N(C)C(=O)[C@@H](NC(=O)[C@H](C(C)C)N(C)C(=O)OCc1ccc(NC(=O)[C@H](CCCNC(N)=O)NC(=O)[C@@H](NC(=O)CCCC(=O)NCCC(=O)N(C)CC(=O)N(C)CC(=O)N(C)CC(=O)N(C)CC(=O)N(C)CC(=O)N(C)CC(=O)N(C)CC(=O)N(C)CC(=O)N(C)CC(=O)N(C)CC(=O)N[C@H]2CSCCC(=O)N3CN4CN(C3)C(=O)CCSC[C@H](NC(=O)[C@@H](CC(=O)O)NC(=O)[C@H](Cc3cccc5ccccc35)NC(=O)[C@@H]3CCCN3C2=O)C(=O)N[C@@H](CCSC)C(=O)N[C@@H](CCCCNC(=N)N)C(=O)N[C@@H](CC(=O)O)C(=O)N[C@@H](Cc2c[nH]c3ccccc23)C(=O)N[C@@H](CO)C(=O)N[C@@H]([C@@H](C)O)C(=O)N2CCC[C@H]2C(=O)N2C[C@H](O)C[C@H]2C(=O)N[C@@H](Cc2c[nH]c3ccccc23)C(=O)N[C@H](C(N)=O)CSCCC4=O)C(C)C)cc1)C(C)C  clearance (mouse, plasma; intravenous, 3 mg/kg): 3.5 mL/min/kg
CC(=O)OC1(C)CC(C=C(C)CCC=C(C)C)OC2(C=C(CO)C3CC(=O)C(C)=CC3O2)C1 (stereo not drawn)  inhibition (Severe acute respiratory syndrome coronavirus 2; viral replication, inhibitor; Calu-3; 50 µM): 90.6%
CCCCCCCCCC1O[C@@H]2C[C@H]3[C@@H]4CCC5=CC(=O)C=C[C@]5(C)[C@H]4[C@@H](O)C[C@]3(C)[C@]2(C(=O)CO)O1 (stereo partly drawn)  IC50 (Severe acute respiratory syndrome coronavirus 2; viral replication; VeroE6/TMPRSS2): 6.4 µM
O=C(O[C@@H]1Cc2c(O)cc(O)cc2O[C@@H]1c1cc(O)c(O)c(O)c1)c1cc(O)c(O)c(O)c1  EC50 (Severe acute respiratory syndrome coronavirus 2; antiviral activity; Huh-7; 96 h): > 100 µM
C[C@]12C=CC(=O)C=C1CC[C@@H]1[C@@H]2[C@@H](O)C[C@@]2(C)[C@H]1C[C@H]1OC(c3cccc(Cl)c3)O[C@]12C(=O)CO (stereo partly drawn)  IC50 (Severe acute respiratory syndrome coronavirus 2; viral replication; VeroE6/TMPRSS2): 8 µM
C[n+]1cc(NC(=O)c2cccc(C(=O)Nc3cc4ccccc4[n+](C)c3)n2)cc2ccccc21.[I-].[I-]  probe displacement (tick-borne encephalitis virus; binding, thiazole orange or ThT displacement; concentration not given, TBEV-5): ~100%

For quick reference, copied from above:
O=C(O[C@@H]1Cc2c(O)cc(O)cc2O[C@@H]1c1cc(O)c(O)c(O)c1)c1cc(O)c(O)c(O)c1  EC50 (Severe acute respiratory syndrome coronavirus 2; antiviral activity; Huh-7; 96 h): > 100 µM
